# Measured values gathered from unrelated publications.
# Protocols differ between the studies behind these lines. Numbers after ± are the reported error.
Structure (SMILES),tested on,test,test system,conditions,scale,endpoint,result
COc1ccc(-c2ccc(-c3ccc(C(=N)N)nc3)s2)cc1,MDA-MB-231/ATCC,NCI five-dose screen,,,,GI50,1750 nM
Cc1c(C(=O)O)ccc2c3n(nc12)[C@@H]1[C@H](C3)N(CC2CC2)[C@@]2(C(=O)Nc3cc(Cl)ccc32)[C@H]1c1cccc(Cl)c1F,well-differentiated liposarcoma cells,alamarBlue,,unbound concentration,,GI50,0.14 nM
Cc1ccc(C(=O)Nc2ccc(CN3CCN(C)CC3)c(C(F)(F)F)c2)cc1C#Cc1cnc2cccnn12,KCL-22 wild type,,,48 h,,GI50,0.008 ± 0.2 nM
[Cl-].[Cl-].[Os+2].c1cnc2c(c1)ccc1cccnc12.c1cnc2c(c1)ccc1cccnc12.c1cnc2c(c1)ccc1cccnc12,SK-MEL-28,"cell growth, sulforhodamine B",,"green light, hypoxia 1% O2",,GI50,144000 nM
Cc1cc(CN)cc(C)c1NC(=O)c1ccc(-c2cc(Cl)ccc2Cl)o1,Toxoplasma gondii,"parasite growth, luciferase reporter","HFF, tachyzoite",72 h,,EC90,13000 µM
Cn1cc(-c2ccc(-c3cncc(Cl)c3N3CCC4(CCNC4=O)CC3)cc2)cn1,COLO 205,"gene expression, microarray, refers to: ARHGEF39 (C9orf100) mRNA",,"concentration not given, 6 h",baseline: untreated cells,log2 fold change,-2.26
CC(=O)[C@]1(O)Cc2c(O)c3c(c(O)c2[C@@H](O[C@H]2C[C@H](N)[C@H](O)[C@H](C)O2)C1)C(=O)c1ccccc1C3=O,Toxoplasma gondii,parasite growth,"HFF, bradyzoite, glutamine-induced",,,EC90,1.91 µM
COc1cc2c(Nc3ccc(Br)cc3F)ncnc2cc1OCC1CCN(C)CC1,TT (RET C634W),"cell growth, CellTiter-Glo",,72 h,,GI50,1010 nM
O=C(/C=C/C=C/C=C/C1CCCCC1)NC1=C[C@@](O)(/C=C/C=C/C=C/C(=O)NC2=C(O)CCC2=O)[C@@H]2O[C@@H]2C1=O,SK-LU-1,"cell growth, CellTiter-Glo",,78 h,,GI50,15600 nM
COc1ccc(-c2ccc(-c3ccc(C(=N)N)nc3)s2)cc1Cl,MDA-MB-231/ATCC,NCI five-dose screen,,,,GI50,1700 nM
Cc1cn(-c2cc(NC(=O)c3ccc(C)c(Nc4nccc(-c5cccnc5)n4)c3)cc(C(F)(F)F)c2)cn1,KCL-22 KCL22-T315I,,,48 h,,GI50,2730 ± 1570 nM
C#C[C@@]1(O)[C@@H](CO)O[C@@H](n2ccc3c(N)ncnc32)[C@@H]1O,NCI60 panel,cell growth,,mean over panel,,GI50,-5.9 log M

# Excerpt of the above:
Structure (SMILES),tested on,test,test system,conditions,scale,endpoint,result
Cc1c(C(=O)O)ccc2c3n(nc12)[C@@H]1[C@H](C3)N(CC2CC2)[C@@]2(C(=O)Nc3cc(Cl)ccc32)[C@H]1c1cccc(Cl)c1F,well-differentiated liposarcoma cells,alamarBlue,,unbound concentration,,GI50,0.14 nM
